Published values pooled from the literature.
Each numbered part is a random draw from the data of one study; scales do not carry over between parts.

Block 1
Target: Histone acetyltransferase KAT6A, winged helix 2, GST fusion (KAT6A, Homo sapiens, UniProt Q92794, residues 85-181)
Method: protein binding microarray
Molecule type: double-stranded DNA, one strand shown
Sample: in vitro
Concentration: not given
Setting: 8-mer, flanks averaged, mean of 2 arrays, mostly near background
Relative to: not given
Direction: higher = stronger binding
Target sequence (chain): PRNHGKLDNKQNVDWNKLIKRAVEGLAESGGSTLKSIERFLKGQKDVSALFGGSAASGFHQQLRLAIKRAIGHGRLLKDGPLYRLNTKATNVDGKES
`CACGTCAA` gave an E-score of -0.203.
For `CGTTACCA`, the E-score was -0.0623.
The E-score of `TAGGGCCA` is reported as -0.0187.
`ACCGGGTC` gave an E-score of -0.0741.
The E-score of `ACTGATGC` is reported as -0.149.
With `CGACTCGC` the E-score was 0.0878.
With `CCCATCAG` the E-score was -0.17.
`ACGGAGAG` has an E-score of 0.0282.
For `GACGTGCC`, the E-score was -0.125.
`ATCTCTTA` has an E-score of -0.179.
For `ACTCCATG`, the E-score was -0.223.
`AAAATCCA` gave an E-score of 0.0627.
For `CACGAGAA`, the E-score was 0.016.
For `TCAGGACA`, the E-score was 0.104.
For `AGAAAGGA`, the E-score was 0.00643.
`CCGCGACG` gave an E-score of 0.172.
`CGAGGTCA` has an E-score of 0.111.
The E-score of `ACGATATA` is reported as -0.17.
For `CGTGTGGC`, the E-score was -0.0355.
With `ATCTTCTA` the E-score was -0.113.
The E-score of `CGGCACAA` is reported as 0.0526.
With `ATTCCCCA` the E-score was 0.0389.
`TCTATCAA` has an E-score of 0.0265.
`GTAGTGGA` gave an E-score of 0.00453.
With `AGTAGCTA` the E-score was -0.0292.

Block 2
Target: TAR DNA-binding protein 43, full length, His tag (TARDBP, Homo sapiens, UniProt Q13148, residues 1-414)
Method: RNA Bind-n-Seq
Molecule type: RNA
Sample: in vitro
Concentration: 20 nM
Setting: 6-mer, flanks averaged, single round
Added: 150 mM KCl
Relative to: input library
Direction: higher = stronger binding
Under “6-mer enrichment (R)”, `UUUGGC` is recorded as 0.732.
`UAGACA` — result for “6-mer enrichment (R)”: 0.673.
`CGUGCA` — result for “6-mer enrichment (R)”: 0.853.
`UGAUUG`: “6-mer enrichment (R)” 0.832.
`UGGCAU`: “6-mer enrichment (R)” 0.818.
For `ACGGAG`, “6-mer enrichment (R)” read 1.62.
For `AAUACA`, “6-mer enrichment (R)” read 0.649.
For `GUUUUA`, “6-mer enrichment (R)” read 0.681.
`AUCUCC` — result for “6-mer enrichment (R)”: 0.572.
`CGGAGU`: “6-mer enrichment (R)” 1.29.
`GUUGUC` — result for “6-mer enrichment (R)”: 0.733.
Under “6-mer enrichment (R)”, `AUAAGU` is recorded as 0.706.
For `GACAGC`, “6-mer enrichment (R)” read 0.944.
Under “6-mer enrichment (R)”, `GGCAGG` is recorded as 4.32.
`GAGCCA`: “6-mer enrichment (R)” 0.935.
Under “6-mer enrichment (R)”, `GGACAG` is recorded as 1.89.
Under “6-mer enrichment (R)”, `CCGUCU` is recorded as 0.587.
For `UCGCCC`, “6-mer enrichment (R)” read 0.62.
For `AAGUAA`, “6-mer enrichment (R)” read 0.649.
`AUCUCU` — result for “6-mer enrichment (R)”: 0.539.
For `CUAUAG`, “6-mer enrichment (R)” read 0.634.
`AUUGGC` — result for “6-mer enrichment (R)”: 0.757.
For `AAACGA`, “6-mer enrichment (R)” read 0.607.
Under “6-mer enrichment (R)”, `CUUAUG` is recorded as 0.638.
`CGCAGU`: “6-mer enrichment (R)” 0.816.

Block 3
Target: RING finger protein unkempt homolog, zinc fingers 1-6, SBP tag (UNK, Homo sapiens, UniProt Q9C0B0, residues 30-357)
Sequence of UniProt Q9C0B0 (30-357, looked up): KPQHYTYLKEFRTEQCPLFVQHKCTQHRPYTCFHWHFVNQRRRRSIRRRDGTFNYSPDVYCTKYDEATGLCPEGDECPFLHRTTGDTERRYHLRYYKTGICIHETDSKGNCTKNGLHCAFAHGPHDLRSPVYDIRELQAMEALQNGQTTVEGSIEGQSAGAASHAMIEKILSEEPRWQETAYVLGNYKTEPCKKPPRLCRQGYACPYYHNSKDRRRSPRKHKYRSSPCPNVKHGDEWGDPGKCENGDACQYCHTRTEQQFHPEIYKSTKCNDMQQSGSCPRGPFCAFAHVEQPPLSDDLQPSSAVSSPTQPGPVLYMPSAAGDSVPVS
Method: RNA Bind-n-Seq
Molecule type: RNA
Sample: in vitro
Concentration: 100 nM
Setting: RNA with constant flanks, vertebrate orthologous sites, ends assumed
Relative to: input RNA pool
Direction: higher = stronger binding
The bound/input enrichment of `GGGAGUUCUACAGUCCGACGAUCGUGACUUUGGAAGUCUGCAGUGUCUCAUUGCAGAUACUACUUAGCUCAGGGCCUGGUGGCUAGACAGGUUCUCUCCUUUCCAGUCGGAGGCCUCUGCCGCAAACAUGCUCCGCCACAUCCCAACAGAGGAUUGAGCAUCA` is reported as 0.309 ratio.
For `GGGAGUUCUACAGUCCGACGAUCCAGAGCAGUUACCUAGUUCGGAGCAGGCCCUACAGGGAUAUUUCGGUUCAGGCAGCGAAGCGGAUGUAUCCUACCAGCAGGAACCAUCCCAUCAGCCCUCCGUGUCCUGCAACCCCUCCACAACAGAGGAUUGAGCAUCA`, the bound/input enrichment was 0.492 ratio.
For `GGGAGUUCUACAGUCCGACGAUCUAGUGCCAUGGUGGAGGGCUCCGAGCUCAAAAAGGUCCGCUCCAACUCCAGGAUUUACCACAGGUAUUUCUUGCUGGAUGCCGACAUGCAGAGCCUGAGGUGGGAACCAUCCAAGAAGGACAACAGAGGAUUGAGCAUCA`, the bound/input enrichment was 0.246 ratio.
`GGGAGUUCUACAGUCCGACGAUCGUUGAACAUAAAUGUUUCCACUGGGUUUUGCUUAUAAGAAGAAAUGGGCCCAUGCACUUAUAUAGCUUUUUAAUAGCGUUAACCAAUGCAUUUUUAGACAUAUUUUGAUGUAUAUAUCUACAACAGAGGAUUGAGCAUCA` gave a bound/input enrichment of 1.35 ratio.
For `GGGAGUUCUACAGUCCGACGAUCGGGACGCUUUGAGGUAAAAAUUUUAAUUAAGAGCUGAUCACGAGCACAAAUCUUUCCCACUAGCCAUUUACUAAGUUAAAAGAGAUACACAAACCUACUAGUCUUGAACAAACUGUCAUACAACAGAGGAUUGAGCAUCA`, the bound/input enrichment was 1.81 ratio.
`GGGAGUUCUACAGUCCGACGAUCUUUUAUUGUACUUGGAAAAAUCUUAGUUUUAAACUAGUCACGGUGAUAACUAGUCUGUGCUAGUGGAAUCAUUUACUCUUACCUUUUAAAUUAUCUUCUCUGUCUGAUACCUGAAACCGUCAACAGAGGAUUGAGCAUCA` has a bound/input enrichment of 1.25 ratio.
For `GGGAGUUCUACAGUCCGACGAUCCACAUCUGGUGAUAUUUGGCCUGGCCUUUCAGCUUAUGAUAAUAGCCCCAGAUCGCCCCAUAGUCCUUCACCAAUUGCUACACCACCUAGUCAGAGUUCAUCUUGCUCUGAUGCCCCCAUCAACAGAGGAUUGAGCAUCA`, the bound/input enrichment was 1.09 ratio.
The bound/input enrichment of `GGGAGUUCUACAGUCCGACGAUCAUUAAAUGUGUAUCAAAUGCUGGAUAUCCCAUUAAACCAUCAUUUAGGAUAGAUGUUUAUUUGUUACAAUUAAGCUACAAAUAGGUUUCCUUAAACCAGAAAUGCACUGCCCUUGUCUUACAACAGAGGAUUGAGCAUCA` is reported as 0.345 ratio.
`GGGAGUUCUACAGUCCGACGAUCGAUUUAGAUAUUCUUUUUAUUCUUUUUCUUUUCCCUCAAUCCUUUUUUAUUUUUAAAAAAUAGUUCUUUUGUAAUGUGGUGUUCAAAAUGGAAAUGAAAACUGGCAUCCCAUCUCUUUAACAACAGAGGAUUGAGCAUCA` has a bound/input enrichment of 4.78 ratio.
For `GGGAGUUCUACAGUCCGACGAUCACUGUUGUUAAGCACUGUGUUCCAGACCGUGUCGGACUUAGUGUAACCUAGGAGAUUUUAUAGUUUUAUUUUAAUGAAAUCCUGAUUGACGCAGAGCAGUGGGAAGAGCAGUGUCUUUUACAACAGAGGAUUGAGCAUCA`, the bound/input enrichment was 5.22 ratio.
`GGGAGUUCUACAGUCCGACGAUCUUCUGUACGGUGCAGAGUCUUCUGUACCAGUGUUCAUCCCUUCUUCAUACCAACUGUCCUUAGUAAUAGGAAUUUAAUAUUUUUAAAAGUUUCACAUUGCUGUAUAUUCAAAGAUUUGUUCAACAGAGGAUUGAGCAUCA` has a bound/input enrichment of 0.799 ratio.

Block 4
Target: Ras GTPase-activating protein-binding protein 1, RRM domain (G3BP1, Homo sapiens, UniProt Q13283)
Sequence of UniProt Q13283 (whole entry, looked up): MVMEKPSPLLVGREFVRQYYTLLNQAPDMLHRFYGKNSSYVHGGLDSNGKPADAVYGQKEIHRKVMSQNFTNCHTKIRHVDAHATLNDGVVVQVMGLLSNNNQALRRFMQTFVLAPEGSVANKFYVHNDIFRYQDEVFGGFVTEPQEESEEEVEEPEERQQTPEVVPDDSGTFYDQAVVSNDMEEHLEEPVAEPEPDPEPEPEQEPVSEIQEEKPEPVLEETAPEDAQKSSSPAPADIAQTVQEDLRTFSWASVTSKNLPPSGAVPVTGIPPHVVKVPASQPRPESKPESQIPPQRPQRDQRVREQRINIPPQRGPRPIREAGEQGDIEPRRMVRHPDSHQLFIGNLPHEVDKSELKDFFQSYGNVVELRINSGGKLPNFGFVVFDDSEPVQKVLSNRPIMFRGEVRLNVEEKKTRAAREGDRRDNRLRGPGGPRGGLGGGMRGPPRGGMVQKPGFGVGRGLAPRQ
Method: RNA Bind-n-Seq
Molecule type: RNA
Sample: in vitro
Concentration: 1 µM
Setting: whole 134-nt RNA, ends assumed
Added: 150 mM KCl
Relative to: input library
Direction: higher = stronger binding
The log2 enrichment of `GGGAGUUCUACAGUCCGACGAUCCAAGUCCUGUGCUACACAUCGUAUGUACCGAAUCGGGUUUUUUUGGGUGGGAGGGAAAGUAUUAUGUUACGCCGUUCGGAUCUGCACUUCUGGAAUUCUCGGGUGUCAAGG` is reported as 0.472.
`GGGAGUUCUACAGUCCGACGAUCCCUGUGCUACACAUCGUAUGUACCGAAUCGGGAAAAAGGGUUUUUUUGGGAAAAAAAGGGAAAGUAUUAUGUUACGCCGUUCGGAUCUGCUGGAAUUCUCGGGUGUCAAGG` has a log2 enrichment of -0.216.
`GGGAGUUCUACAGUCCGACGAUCUGCGAUAUGAACGUUCACAAGCAAUGCGUCAUCAAUGUCCCCAGCCUCUGCGGAAUGGAUCACACUGAGAAGAGGGGGCGGAUUUACCUAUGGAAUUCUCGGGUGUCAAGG` gave a log2 enrichment of -0.177.
With `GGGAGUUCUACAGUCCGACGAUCACCAUGCAGGUGGGCAUCUUUGGGAAGUGGGGCAAGGGGGGGAUAGGGAGGGGGGUAACACUUUGGGAACAGGUGGUCCCAGGUCGUCUCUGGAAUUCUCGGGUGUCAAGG` the log2 enrichment was 0.355.
`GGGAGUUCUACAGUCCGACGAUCGAAAAUUUCUCAGUUCUUAAGAAUGCUUGCUGUGGGUAUAGUGCAGGUAUAUUGAAAGGAAUUUUUUUCUUGCAGCGGGAAAGAGACAUGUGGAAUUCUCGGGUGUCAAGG` gave a log2 enrichment of -0.293.
With `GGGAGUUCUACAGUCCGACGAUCAGUCCUGUGCUACACAUCGUAUGUACCGAAUCGGGUUUUUGGGAGGGUUUUUUUGGGAAAGUAUUAUGUUACGCCGUUCGGAUCUGCACUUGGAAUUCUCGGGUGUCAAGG` the log2 enrichment was 0.263.
For `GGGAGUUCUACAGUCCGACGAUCACCAUGCAGGUGGGCAUCUUUGGGAAGUGGGGCAAGGGGGGGAUAGGGAGGGGGGUAACACUUUGGGAACAGGUGGUCCCAGGUCGUAUCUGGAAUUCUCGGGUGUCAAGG`, the log2 enrichment was 0.308.
With `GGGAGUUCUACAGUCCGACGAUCACCAUGCAGGUGGGCAUCUUUGGGAAGUGGGGCAAGGGGGGGAUAGGGAGGGGGGUAACACUUUGGGAACAGGUGGUUCCAGGUCGUUUCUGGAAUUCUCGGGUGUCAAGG` the log2 enrichment was 1.18.
`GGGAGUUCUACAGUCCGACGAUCGCAGGAAGUAAAAACAAAUGGAAAUGCUUCGGCUAGUGGCAGGGGUGGGGGUUGCUAAGGAAAGGGUGGGAUGGGAGUGGGUAAAGAGUUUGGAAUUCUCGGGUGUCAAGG` gave a log2 enrichment of 1.08.
`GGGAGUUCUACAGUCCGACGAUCUGGUCCUGGUGGCAUGCGGGGAGGAAGAGGUGGCCUCAUGGAUCGUGGUGGUCCCGGUGGAAUGUUCAGAGGUGGCCGUGGUGGAGACAGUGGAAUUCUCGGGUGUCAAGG` gave a log2 enrichment of 0.442.

Repeated from above (block 4):
The log2 enrichment of `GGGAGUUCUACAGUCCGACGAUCCAAGUCCUGUGCUACACAUCGUAUGUACCGAAUCGGGUUUUUUUGGGUGGGAGGGAAAGUAUUAUGUUACGCCGUUCGGAUCUGCACUUCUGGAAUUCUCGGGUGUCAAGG` is reported as 0.472.
`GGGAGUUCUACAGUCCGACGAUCCCUGUGCUACACAUCGUAUGUACCGAAUCGGGAAAAAGGGUUUUUUUGGGAAAAAAAGGGAAAGUAUUAUGUUACGCCGUUCGGAUCUGCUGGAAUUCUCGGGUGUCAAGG` has a log2 enrichment of -0.216.
`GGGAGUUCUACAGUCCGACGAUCUGCGAUAUGAACGUUCACAAGCAAUGCGUCAUCAAUGUCCCCAGCCUCUGCGGAAUGGAUCACACUGAGAAGAGGGGGCGGAUUUACCUAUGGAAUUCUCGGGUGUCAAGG` gave a log2 enrichment of -0.177.
`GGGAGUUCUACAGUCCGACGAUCGAAAAUUUCUCAGUUCUUAAGAAUGCUUGCUGUGGGUAUAGUGCAGGUAUAUUGAAAGGAAUUUUUUUCUUGCAGCGGGAAAGAGACAUGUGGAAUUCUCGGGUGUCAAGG` gave a log2 enrichment of -0.293.
`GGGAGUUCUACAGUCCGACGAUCUGGUCCUGGUGGCAUGCGGGGAGGAAGAGGUGGCCUCAUGGAUCGUGGUGGUCCCGGUGGAAUGUUCAGAGGUGGCCGUGGUGGAGACAGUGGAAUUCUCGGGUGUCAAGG` gave a log2 enrichment of 0.442.
With `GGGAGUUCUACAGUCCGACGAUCAGUCCUGUGCUACACAUCGUAUGUACCGAAUCGGGUUUUUGGGAGGGUUUUUUUGGGAAAGUAUUAUGUUACGCCGUUCGGAUCUGCACUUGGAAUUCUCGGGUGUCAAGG` the log2 enrichment was 0.263.
`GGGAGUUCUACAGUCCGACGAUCGCAGGAAGUAAAAACAAAUGGAAAUGCUUCGGCUAGUGGCAGGGGUGGGGGUUGCUAAGGAAAGGGUGGGAUGGGAGUGGGUAAAGAGUUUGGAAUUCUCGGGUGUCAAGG` gave a log2 enrichment of 1.08.
